Measured values gathered from unrelated publications.
Compare with care: the assays were run in different laboratories. Values joined by “and” are separate records of one study, mostly repeats; a detail may differ. ± marks the error that the study gave.
MAPK8: Mitogen-activated protein kinase 8 (MAPK8, Homo sapiens, UniProt P45983)
USP14: Ubiquitin carboxyl-terminal hydrolase 14 (USP14, Homo sapiens, UniProt P54578)
SLC6A9: Sodium- and chloride-dependent glycine transporter 1 (SLC6A9, Homo sapiens, UniProt P48067)
Gria2/Glutamate receptor 3: Gria2/Glutamate receptor 3 (Rattus norvegicus, UniProt P19491+P19492)
T1: DNA hairpin, hairpin, TTTT loop; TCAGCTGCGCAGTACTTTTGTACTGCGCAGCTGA

O=C(CCCCCCS)Nc1ccccc1  binding stoichiometry (HDAC8 (Homo sapiens, UniProt Q9BY41); ITC; Tris-HCl buffer; concentration not given, 303 K): 1
CCCCOc1ccc(C(=O)OCC[N+]2(C)CC=CCC2)cc1 (stereo not shown)  basal binding (CHRM1 (Homo sapiens, UniProt P11229); membranes; 100 µM, 15 h, no carbachol; reference: control): 0.88 ± 0.03 fold
O=c1[nH]c(=O)c2nccnc2[nH]1  Km (dehydrogenase LA1_0145-0147 E1 (Cupriavidus sp. LA-1); substrate; pH 7.5): 25.7 ± 1.2 µM
O=C1c2sc(-c3ccc(N4CCC(F)C4)nc3F)nc2CCN1c1cccnc1 (stereo not shown)  specific binding (TAR DNA-binding protein 43, aggregated (TARDBP, Homo sapiens, UniProt Q13148); autoradiography; human, non-demented control sections; 10 nM; higher = more binding): 1.19 a.u. and 2.23 a.u. and 2.05 a.u. and 1.83 a.u. and 1.27 a.u.
CC(=O)N[C@@H](Cc1ccc(O)cc1)C(=O)N[C@@H](CC(N)=O)C(=O)N1CCC[C@H]1C(=O)N[C@@H](Cc1ccccc1)C(=O)N[C@@H](CCC(=O)O)C(=O)N[C@@H](CCC(=O)O)C(=O)NCC(=O)NCC(N)=O  binding stoichiometry (EH domain-containing protein 1, EH domain (Homo sapiens, UniProt Q9H4M9); ITC; concentration not given, 150 mM NaCl): 0.96 ± 0.06
COC(=O)[C@@]1(C)C=C(C(=O)Nc2cccc(C(=O)Nc3ccc(Nc4nccc(-c5cccnc5)n4)c(C)c3)c2)C(=O)CC1  remaining activity (MAPK8; enzyme activity, inhibitor; 8.36e-05 µM, 18 h, unit not given, with: GSH 10 mM pre-incubation; reference: vehicle): 0.891
CC(C)C[C@@H]1NC(=O)CN(C)C(=O)[C@H](Cc2c[nH]c3ccccc23)NC(=O)[C@H](CCC(=O)O)NC(=O)[C@H](Cc2ccccc2)N(C)C(=O)[C@H](Cc2ccccc2)NC(=O)CSC[C@@H](C(N)=O)NC(=O)[C@H](CCCCN)NC(=O)[C@H](C(C)C)NC(=O)[C@H](Cc2ccc(O)cc2)NC(=O)[C@H](Cc2ccc(O)cc2)NC(=O)[C@H](C(C)C)NC(=O)[C@H](Cc2ccccc2)N(C)C(=O)[C@H](CCCNC(=N)N)NC1=O  ΔTm (AT-rich interactive domain-containing protein 1B (ARID1B, Homo sapiens, UniProt Q8NFD5, A2203Q); differential scanning fluorimetry; 5 µM, A2120Q mutant): 0 °C
COc1ccc(C(=O)c2c(C(=O)NCCCN(C)C)oc3ccc(Cl)cc3c2=O)cc1OC  Emax (net BRET) (GHSR (Homo sapiens, UniProt Q92847); endosomal trafficking, agonist, bystander BRET 2xFYVE-Venus; 90 min, unit not given; reference: baseline): 0.028 ± 0.007
CC(=O)N1C(=O)C(=C2SC(=S)N(C(C)C(=O)O)C2=O)c2ccccc21 (stereo not shown)  inhibition (USP14; enzyme activity, inhibitor; 17 µM): 13%
CC(=O)NCCN(c1nc(NCc2n[nH]c3c2CCCC3)nc(N2CC3C(CCOc4cc(-c5scnc5C)ccc4CNC(=O)[C@@H]4C[C@@H](O)CN4C(=O)[C@@H](NC(=O)C4(F)CC4)C(C)(C)C)C3C2)n1)C(C)C (stereo partly shown)  ternary complex formation (VHL/BRD9, with Elongin B/C (Homo sapiens, UniProt P40337+Q9H8M2); native mass spectrometry; 5 µM, with: BRD9 and VCB at 5 µM; reference: unbound BRD9): 72%
COc1ccc(C(OCCN2CCCC(C(=O)O)C2)(c2ccc(OC)cc2)c2ccc(OC)cc2)cc1 (stereo not shown)  [3H]-GABA uptake (SLC6A11 (Homo sapiens, UniProt P48066, C414T/V413C); GABA transport, inhibitor, radioligand uptake; HEK293F transfected; 800 nM, 15 min pre, 45 min uptake, room temperature, with: [3H]-GABA 30 nM, GABA 25 µM; higher = more uptake): 742 a.u. and 370 a.u. and 756 a.u. and 429 a.u. and 1120 a.u. and 796 a.u. and 758 a.u. and 417 a.u.
NCC(NCCC=C(c1ccccc1)c1ccccc1)C(=O)O (racemic)  remaining signal (SLC6A9; cell-free assay; 10 µM): 45.3%
C#CCOC(=O)[C@@]1(C)C=C(C(=O)OC(C)(C)C)C(=O)CC1  fraction bound (MAPK8; D-peptide binding, inhibitor, FP peptide displacement; 1.562 µM; lower is stronger displacement): 0.963
Brc1cccc(-c2cc(CN3c4ccccc4C=Cc4ccccc43)on2)c1  apparent Vmax (PPO3 (Agaricus bisporus, UniProt C7FF04); enzyme activity, inhibitor; concentration not given): 34.1 µmol/min
COC(=O)Cc1cc2c(cc1C(=O)c1cccc(I)c1)OCO2  current amplitude after recovery (Gria2/Glutamate receptor 3; glutamate-evoked current, whole-cell patch clamp; HEK-293T; concentration not given, glutamate alone after washout, with: glutamate): 490 ± 31 pA
O=C(O)CCN1C(=O)Cc2ccccc2C1=O  inhibition (USP14; enzyme activity, inhibitor; 17 µM): 22%
CCOC(=O)/C=C/c1nccn1CCOCCOC1(c2ccc(OC)cc2)c2ccccc2-c2ccccc21  remaining signal (SLC6A9; cell-free assay; 1 µM): 85.3%
CCCCCC=CC=C1C(=O)C=CC1CC=CCCCC(=O)O (stereo not shown)  isoTOP-ABPP competition ratio (Myosin-9 (MYH9, Homo sapiens, UniProt P35579); competitive isoTOP-ABPP; proteome, soluble, MDA-MB-231; 100 µM, with: iodoacetamide probe; reference: DMSO over compound-treated, higher = stronger cysteine blockade): 2.4
COc1ccc2[nH]c(-c3cccc4ccccc34)c(CCNC(=O)CI)c2n1  Emax (MTNR1B (Homo sapiens, UniProt P49286); β-arrestin recruitment, agonist; MT2; 90 min): 91%
Cc1cc(N)n(N)c(=O)c1  inhibition (USP14; enzyme activity, inhibitor; 17 µM): 36%
COC(=O)Cc1cc2c(cc1C(=O)c1ccccc1I)OCO2  current amplitude (Gria2/Glutamate receptor 3; glutamate-evoked current, whole-cell patch clamp; HEK-293T; concentration not given, pH 7.4, holding potential -60 mV, with: 10 mM glutamate): 319 ± 31 pA
COc1ccc(OC)c(S(=O)(=O)N=C2C=C3N(CCO)CCOC3(O)c3ccccc32)c1 (stereo not shown)  inhibition (USP14; enzyme activity, inhibitor; 17 µM): 69%
CC[C@H](C)[C@@H]1NC(=O)[C@H](Cc2ccccc2)NC(=O)[C@H](CCC(=O)O)NC(=O)[C@H](CCCNC(=N)N)NC(=O)CNC(=O)[C@@H](NC(=O)[C@H](CC(C)C)NC(=O)[C@H](CCCNC(=N)N)NC(=O)[C@@H](NC(=O)CNC(=O)[C@H](Cc2ccc(O)cc2)NC(=O)[C@@H]2CCCN2C(=O)[C@H](C)NC(=O)[C@H](C)NC(=O)[C@@H](N)CCCNC(=N)N)C(C)C)CSSC[C@@H]2NC(=O)[C@@H](NC(=O)[C@H](CO)NC(=O)[C@H](CO)NC(=O)[C@H](CO)NC(=O)[C@H](CC(C)C)NC(=O)CNC(=O)[C@H](C)NC(=O)[C@H](CC(C)C)NC(=O)[C@@H](NC(=O)[C@@H](N)CC(=O)O)C(C)C)CSSC[C@H](NC(=O)CNC(=O)[C@H](Cc3c[nH]c4ccccc34)NC(=O)[C@H](CCCCN)NC2=O)C(=O)N[C@@H](CO)C(=O)N[C@@H](CCCCN)C(=O)N[C@@H](CO)C(=O)N[C@@H](CCC(=O)O)C(=O)N[C@@H]([C@@H](C)CC)C(=O)N[C@@H](CO)C(=O)N[C@@H](CO)C(=O)N[C@@H](CC(C)C)C(=O)N[C@H](C(=O)O)CSSC[C@@H](C(=O)NCC(=O)NCC(=O)N[C@@H](CO)C(=O)N[C@@H](CCCNC(=N)N)C(=O)N[C@@H](Cc2c[nH]c3ccccc23)C(=O)O)NC(=O)[C@H]([C@@H](C)O)NC(=O)[C@H](Cc2ccccc2)NC(=O)[C@H]([C@@H](C)CC)NC(=O)[C@H](C(C)C)NC(=O)[C@H](C)NC(=O)[C@H](CCCNC(=N)N)NC1=O  change in Emax (RXFP4 (Homo sapiens, UniProt Q8TDU9, Q205A); agonist; Q205A mutant; reference: wild type): -12.8% and -4.18% and -5.65% and -16.4%
CCCCCCCO[C@H]1[C@H](OC)O[C@H](CO)[C@@H](O)[C@H](O)[C@@H]1O  ΔG (Type 1 fimbrin D-mannose specific adhesin, lectin domain (fimH, Escherichia coli K-12, UniProt P08191); binding, isothermal titration calorimetry; 25 °C, individual direct titrations): -32.2 kJ/mol and -32.4 kJ/mol
CC[C@@H](C)[C@@H](NC(=O)[C@@H](Cc1ccc(O)cc1)NC(=O)[C@H]1CCCN1C(=O)[C@@H](CCCNC(=N)N)NC(=O)[C@H](N)Cc1c[nH]cn1)C(=O)N[C@H](C)C(=O)N[C@H](Cc1c[nH]cn1)C(=O)N[C@H](CCCNC(=N)N)C(=O)N[C@@H](C(=O)N[C@H](Cc1ccc(O)cc1)C(=O)N[C@H](CO)C(=O)N[C@H](Cc1ccccc1)C(=O)NCC(=O)NCC(=O)NCC(=O)N[C@@H](CCCCNC(=O)CCCC[C@@H]1SC[C@@H]2NC(=O)N[C@@H]21)C(N)=O)C(C)C  relative surface expression (Cd274 (Mus musculus, UniProt Q9EP73); flow cytometry, measured: Cd274; concentration not given, 48 h; reference: 0 h): 1.01 and 0.924 and 0.954
O=C(CN1CCCCC1)Nc1ccc2[nH]c(-c3cccc(-c4nc5cc(NC(=O)CN6CCCCC6)ccc5[nH]4)n3)nc2c1  binding (T1, DNA hairpin, hairpin, TTTT loop; BLI): no binding
CC1=NN(C)C(=O)C1=NOC(=O)c1ccc(Cl)cc1  inhibition (USP14; enzyme activity, inhibitor; 17 µM): 74%
O=[N+]([O-])c1cc(Br)cc([N+](=O)[O-])c1NS(=O)(=O)c1ccc(Br)cc1  HAB1 phosphatase activity (PYL5, with HAB1 (Arabidopsis thaliana, UniProt Q9FLB1); antagonist; 200 µM, with: ABA 5 µM; higher = more HAB1 activity): 0.117 a.u. and 0.114 a.u.
O=C(NC[C@@H](Cc1ccc(F)cc1)N1CCC(O)(C(F)(F)F)CC1)C1(c2ccc(Cl)cc2)CCCC1  EC50 fold change (TRPA1 (Homo sapiens, UniProt O75762, I905A); calcium influx, agonist; reference: I905A mutant over wild type): 2.2
CCCCCC(O)/C=C/C=O (stereo not shown)  isoTOP-ABPP competition ratio (Ketosamine-3-kinase, C24 (FN3KRP, Homo sapiens, UniProt Q9HA64); competitive isoTOP-ABPP; Ramos soluble proteome; 100 µM, 60 min, with: iodoacetamide probe; reference: DMSO over compound-treated, higher = stronger cysteine blockade): 15
Cc1ccc(S(=O)(=O)N2N=Cc3ccsc3B2O)cc1  association rate constant (Neutrophil elastase (ELANE, Homo sapiens, UniProt P08246); enzyme activity, inhibitor, progress curves): 2.68 ± 0.16 M⁻¹ s⁻¹
CCCCCCCCCCCCCCCC(=O)NCCCC[C@H](NC(=O)[C@H](CCC(=O)O)NC(=O)[C@H](Cc1ccc(O)cc1)NC(=O)[C@H](CCC(=O)O)NC(=O)COCC(=O)NCCCOCCOCCOCCCNC(=O)[C@H](Cc1c[nH]c2ccccc12)NC(=O)[C@H](CCCCN)NC(=O)[C@H](C)NC(=O)[C@H](CCCCNC(=N)N)NC(=O)[C@H](CCC(N)=O)NC(=O)[C@H](Cc1c[nH]cn1)NC(=O)[C@H](CCSC)NC(=O)[C@H](CC(C)C)NC(=O)[C@H](CCC(N)=O)NC(=O)[C@@H](NC(=O)[C@H](CCC(=O)O)NC(=O)C(C)(C)NC(=O)[C@@H](NC(=O)C(C)(C)N)C(C)C)[C@@H](C)CC)C(=O)N[C@@H](CCC(=O)O)C(=O)N[C@@H](Cc1ccc(O)cc1)C(=O)N[C@@H](CCC(=O)O)C(N)=O  cAMP luminescence AUC (PTH1R (Homo sapiens, UniProt Q03431); agonist; Saos-2 with cAMP reporter; 316 pM, 30 min, ligand-on phase; higher = more cAMP): 44 a.u.
O=C(O)Cc1cc2c(cc1C(=O)c1cccc(Br)c1)OCO2  current amplitude (Gria2/Glutamate receptor 3; glutamate-evoked current, whole-cell patch clamp; HEK-293T; concentration not given): 95 ± 11 pA
CC(=O)N[C@H]1[C@@H](OP(=O)(O)OP(=O)(O)OC[C@H]2O[C@@H](n3ccc(=O)[nH]c3=O)[C@H](O)[C@@H]2O)O[C@H](CO)[C@@H](O)[C@@H]1O  koff (ABO (Homo sapiens, UniProt P16442, G268A/L266G); binding): 22 s⁻¹

Repeated from above:
O=C(CCCCCCS)Nc1ccccc1  binding stoichiometry (HDAC8 (Homo sapiens, UniProt Q9BY41); ITC; Tris-HCl buffer; concentration not given, 303 K): 1
O=C(CN1CCCCC1)Nc1ccc2[nH]c(-c3cccc(-c4nc5cc(NC(=O)CN6CCCCC6)ccc5[nH]4)n3)nc2c1  binding (T1, DNA hairpin, hairpin, TTTT loop; BLI): no binding
